Measured values gathered from unrelated publications.
Each numbered part is a random draw from the data of one study; scales do not carry over between parts.

Sample 1 — effect on: enzyme activity; mode: inhibitor; tested at: 20 µM; setting: primary screen; endpoint: inhibition
Target: Replicase polyprotein 1ab, main protease (rep, Severe acute respiratory syndrome coronavirus 2, UniProt P0DTD1)
O=C(CCl)c1ccccc1: 99.9%
CC(C)(C)c1ccc(S(=O)(=O)/C=C/C#N)cc1: 100%
N=C(N)S/C=C\C(=O)O: 27.6%

Sample 2 — cell line: HEK-293T/ACE2; tested at: concentration not given; time: 16 (unit not given); relative to: vehicle; endpoint: viability
CNNCc1ccc(C(=O)NC(C)C)cc1: 105%
CN(C)CCn1nnnc1SCC1=C(C(=O)O)N2C(=O)[C@@H](NC(=O)Cc3csc(N)n3)[C@H]2SC1: 105%
CCC(=O)O[C@H]1CC[C@H]2[C@@H]3CCC4=CC(=O)CC[C@]4(C)[C@H]3CC[C@]12C: 98.3%

Sample 3 — technique: universal PBM; molecule type: double-stranded DNA, one strand shown; matrix: in vitro; tested at: 600 nM; reading: higher = stronger binding; endpoint: E-score
Target: Sal-like protein 4, full length isoform A (SALL4, Homo sapiens, UniProt Q9UJQ4, residues 1-1053)
UniProt Q9UJQ4, sequence (whole entry, looked up): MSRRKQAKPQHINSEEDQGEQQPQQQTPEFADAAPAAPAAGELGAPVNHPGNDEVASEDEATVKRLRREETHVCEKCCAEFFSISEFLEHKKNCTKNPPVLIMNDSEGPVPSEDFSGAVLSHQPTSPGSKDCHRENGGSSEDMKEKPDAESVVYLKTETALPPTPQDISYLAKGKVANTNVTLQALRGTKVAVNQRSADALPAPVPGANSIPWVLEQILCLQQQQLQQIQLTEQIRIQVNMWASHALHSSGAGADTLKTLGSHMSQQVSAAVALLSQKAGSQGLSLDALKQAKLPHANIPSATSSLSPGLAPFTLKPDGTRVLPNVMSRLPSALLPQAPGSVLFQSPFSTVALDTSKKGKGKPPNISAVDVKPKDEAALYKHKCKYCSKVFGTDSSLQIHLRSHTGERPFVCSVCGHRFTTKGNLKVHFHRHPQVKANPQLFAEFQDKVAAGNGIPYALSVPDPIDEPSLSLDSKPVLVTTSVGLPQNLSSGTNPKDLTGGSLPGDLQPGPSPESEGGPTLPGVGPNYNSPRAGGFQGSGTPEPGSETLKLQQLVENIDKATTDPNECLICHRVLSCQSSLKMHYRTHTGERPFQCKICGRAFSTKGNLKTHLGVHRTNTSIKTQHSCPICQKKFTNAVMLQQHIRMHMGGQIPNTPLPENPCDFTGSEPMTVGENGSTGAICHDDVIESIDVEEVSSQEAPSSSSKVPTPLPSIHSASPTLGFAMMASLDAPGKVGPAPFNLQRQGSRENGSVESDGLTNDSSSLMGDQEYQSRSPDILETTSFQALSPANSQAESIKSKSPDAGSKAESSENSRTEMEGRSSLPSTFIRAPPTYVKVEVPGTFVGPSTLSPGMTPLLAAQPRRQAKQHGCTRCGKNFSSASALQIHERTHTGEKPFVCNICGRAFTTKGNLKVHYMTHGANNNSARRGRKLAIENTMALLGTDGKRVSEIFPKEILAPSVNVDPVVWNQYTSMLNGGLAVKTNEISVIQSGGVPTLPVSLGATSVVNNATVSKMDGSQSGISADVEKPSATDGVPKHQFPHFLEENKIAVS
Setting: 8-mer, flanks averaged, mean of replicates
AGCCTTGG: -0.138
ATCTAACC: 0.0198
AGCTCTAG: -0.0277
CGTAAACC: -0.194
CAATAATC: 0.288
AGTGGTAT: 0.123
ATGATTAA: 0.389
GGCACTAC: -0.243

Sample 4 — mode: inhibitor; tested at: 20 µM; endpoint: inhibition
Target: Replicase polyprotein 1ab, nsp13 helicase (rep, Severe acute respiratory syndrome coronavirus 2, UniProt P0DTD1)
COc1cc(OCc2cccc(-c3ccccc3)c2C)cc(OC)c1CN1CCCC[C@H]1C(=O)O: 2.27%
CC(=O)NC[C@H]1CN(c2ccc(N3CCSCC3)c(F)c2)C(=O)O1: 0.41%
Nc1nc2c(c(=O)[nH]1)NC(CNc1ccc(C(=O)N[C@@H](CCC(=O)O)C(=O)O)cc1)CN2 (stereo partly shown): -2.14%
Fc1ccc(-c2cncc(CN3CCN(c4cccc5c4OCCO5)CC3)c2)cc1: 3.43%
NC(=O)N1c2ccccc2CC(=O)c2ccccc21: 5.89%
Cc1c(C)c2c(c(C)c1O)CCC(C)(C)O2: 6.91%
Cc1cc(OCCCS(C)(=O)=O)cc(C)c1-c1cccc(COc2ccc3c(c2)OC[C@H]3CC(=O)O)c1: 18.7%
C[C@]12CCC(=O)C=C1C=C[C@@H]1[C@@H]2CC[C@@]2(C)[C@H]1CC[C@@]21CCC(=O)O1: 8.61%
CN1C2=CC(=O)/C(=N\NC(N)=O)C=C2CC1S(=O)(=O)O (stereo not shown): 1.2%
Cc1sc(C)c(C(=O)NC2(c3ccc(C(=O)O)cc3)CC2)c1Cc1ccc(C(F)(F)F)cc1: 6.75%
Cc1ccc(O)c(N=Nc2ccccc2)n1: 5.96%
CCCCOc1ccc(C(=O)CCN2CCCCC2)cc1: 23.2%
CCCCc1ccc(O)cc1O: 4.17%
C[C@@H](O)[C@H]1C(=O)N2C(C(=O)OCOC(=O)C(C)(C)C)=C(SC3CN(C4=NCCS4)C3)[C@H](C)[C@H]12: -1.1%
COc1cc([C@@H]2c3cc4c(cc3[C@@H](O[C@@H]3O[C@@H]5CO[C@@H](C)O[C@H]5[C@H](O)[C@H]3O)[C@H]3COC(=O)[C@H]23)OCO4)cc(OC)c1OP(=O)(O)O: 2.51%

Sample 5 — technique: protein-binding microarray; molecule type: double-stranded DNA, one strand shown; matrix: in vitro; tested at: 2540 nM top; setting: 60-bp whole probe; with: salmon DNA 0.4 mg/ml; relative to: random background probes; reading: higher = stronger binding; endpoint: fitted relative affinity; shared flanks, not repeated: GCCTAGCAC … GTCTTGATTCGCTTGACGCTGCTG
Target: Interferon regulatory factor 3, full length, phosphomimetic (IRF3, Homo sapiens, UniProt Q14653, residues 1-427, S386D/S396D/S398D/S402D/T404D/S405D)
Target sequence (chain): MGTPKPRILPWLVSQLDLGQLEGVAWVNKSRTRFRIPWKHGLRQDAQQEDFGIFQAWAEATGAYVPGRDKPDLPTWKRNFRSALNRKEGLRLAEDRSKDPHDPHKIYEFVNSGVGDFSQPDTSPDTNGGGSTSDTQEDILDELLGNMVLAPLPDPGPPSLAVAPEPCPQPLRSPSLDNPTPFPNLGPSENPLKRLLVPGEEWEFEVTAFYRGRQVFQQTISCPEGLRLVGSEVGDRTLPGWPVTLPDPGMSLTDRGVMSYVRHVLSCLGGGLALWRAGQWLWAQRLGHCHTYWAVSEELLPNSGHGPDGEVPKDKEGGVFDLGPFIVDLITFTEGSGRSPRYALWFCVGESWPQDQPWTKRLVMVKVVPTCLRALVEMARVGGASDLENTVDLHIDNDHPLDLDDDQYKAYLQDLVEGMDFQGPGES
TTAGGTTGCGGTATCGGTTAGTGCTAG: 5.39 z-score
GACGATATCAGTTTCGAAACGTGCTAG: 4.6 z-score
GTAGGTCTCGGTCTCGGTTAGTGCTAG: 1.19 z-score
TGAGGACTGCTTATCCTTTAGTGCTAG: -0.237 z-score
TTAAATATCAGACTGGATTAGTGCTAG: 0.207 z-score
AATATTCTGCTTTGCAATAAGTGCTAG: 0.422 z-score
TCACTTTTTTTAATTGAACTGTGCTAG: 1.14 z-score
GACGGACTGCGGTATCGGGACGTGCTA: 0.068 z-score
